Assay results of several laboratories.
Each line is one published result; not all experiments were run side by side. ± gives the spread as reported. Values after ≈ are worked out from the molar mass of the structure shown.

| SMILES | organism | assay | test system | setting | how to read | measurement | result |
| --- | --- | --- | --- | --- | --- | --- | --- |
| N#Cc1ccc(-c2ccc(-c3cccs3)o2)cc1 | Salmonella typhimurium | mutagenicity, Ames test | TA1535 | 10 or 20 µM, 48 h, pH 7.4, higher tested concentration, added: rat liver S9 mix |  | revertant colonies | 24.7 ± 2.5 colonies/plate |
| N=C(N)NCCC[C@@H]1NC(=O)[C@H](CCCNC(=N)N)NC(=O)[C@H](CCCNC(=N)N)NC(=O)[C@H](CCCNC(=N)N)NC(=O)[C@H](Cc2c[nH]c3ccccc23)NC(=O)[C@H](CCCNC(=N)N)NC(=O)[C@H](CCCNC(=N)N)NC(=O)[C@@H](N)CCCCn2cc(nn2)C[C@@H](C(N)=O)NC1=O | Staphylococcus aureus | broth microdilution | ATCC 25923 | 2 h, 37 °C, added: 50% fetal bovine serum preincubation |  | MIC | 31.2 µg/mL (≈ 22.5 µM) |
| N=C(N)c1ccc(-c2ccc(-c3cccs3)o2)nc1 | Salmonella typhimurium | mutagenicity, Ames test | TA1535 | 10 or 20 µM, 48 h, pH 7.4, higher tested concentration, added: rat liver S9 mix |  | revertant colonies | 24 ± 2.7 colonies/plate |
| COc1cc2nc(NC3CCN(Cc4ccc(C(N)=O)cc4)CC3)nc(Oc3c(C)cc(C#N)cc3C)c2cc1OC | HIV-1 |  | TZM-bl, NL4-3 wild type |  | reference: CC50 over EC50 | selectivity index | 10800 |
| Cc1ccccc1CN1CCC(C(=O)N2CCc3ccccc32)CC1 | porcine epidemic diarrhea virus |  | Vero |  | reference: CC50 over EC50 | selectivity index | > 3 |
| N#Cc1ccc(-c2ccc(-c3cccs3)s2)cc1 | Salmonella typhimurium | mutagenicity, Ames test | TA1535 | 10 or 20 µM, 48 h, pH 7.4, higher tested concentration, added: rat liver S9 mix |  | revertant colonies | 26.7 ± 2.1 colonies/plate |
| CCC(=O)N(C)c1ccc(Cl)c(Cl)c1 | Salmonella typhimurium | Ames test | TA100 | 1.00 mg/plate, with rat liver S9 |  | revertant colonies | 53 ± 4.6 revertants/plate |
| C=CC(=O)Nc1cccc(Cn2ncc3cnc(Nc4cnn(CCOC)c4)nc32)c1 | Salmonella typhimurium | Ames test | TA102 | concentration not given, with and without S9 |  | mutagenicity | negative |
| Cc1cc(C#N)cc(C)c1Oc1nc(NC2CCN(Cc3ccc(S(C)(=O)=O)cc3)CC2)nc2ccccc12 | HIV-1 |  | TZM-bl, NL4-3 wild type |  | reference: CC50 over EC50 | selectivity index | > 163 |
| COc1ccc(CNc2nc(N3CCC[C@H]3CO)ncc2C(=O)NNC(=O)c2cnc(N3CCC[C@H]3CO)nc2NCc2ccc(OC)c(Cl)c2)cc1Cl | Salmonella typhimurium |  | TA98 | 500 µg/plate, 48 h |  | revertant count | 26 ± 4 |
| CC(=O)N(O)CCCP(=O)(O)O | Salmonella typhimurium | Ames test | TA100 | 100 µg/plate, without S9 |  | revertant count | 48 colonies |
| N#Cc1ccc(-c2ccc(-c3cccs3)o2)nc1 | Salmonella typhimurium | mutagenicity, Ames test | TA1535 | 5 or 10 µM, 48 h, pH 7.4, lower tested concentration, added: rat liver S9 mix |  | revertant colonies | 28.7 ± 3.1 colonies/plate |
| Cc1cc(/C=C/C#N)cc(C)c1Oc1nc(NC2CCN(Cc3ccc(S(C)(=O)=O)cc3)CC2)nc2ncccc12 | HIV-1 |  | TZM-bl, NL4-3 wild type |  | reference: CC50 over EC50 | selectivity index | 12200 |
| CC(C)C[C@@H]1NC(=O)[C@@H](Cc2ccccc2)NC(=O)[C@H](CCN)NC(=O)[C@@H](NC(=O)[C@H](CN)NC(=O)[C@@H](NC(=O)C[C@H](CN)c2cccc(Cl)c2)[C@@H](C)O)CCNC(=O)[C@H]([C@@H](C)O)NC(=O)[C@H](CCN)NC(=O)[C@H](CCN)NC1=O | Acinetobacter baumannii NCTC 13301 |  | neutropenic mouse, lung infection | subcutaneous, 25.8 mg/kg three doses every 4 h |  | tolerability | not toxic |
| COC(=O)c1cn([C@H]2C[C@@H](C(=O)NCc3cccc(C(F)(F)F)c3)N(C3CCN(Cc4ccccc4)CC3)C2)nn1 | porcine epidemic diarrhea virus |  | Vero |  | reference: CC50 over EC50 | selectivity index | > 2 |
| N=C(N)c1ccc(-c2ccc(-c3cccs3)o2)cc1 | Salmonella typhimurium | mutagenicity, Ames test | TA1535 | 5 or 10 µM, 48 h, pH 7.4, lower tested concentration, added: rat liver S9 mix |  | revertant colonies | 11.7 ± 1.5 colonies/plate |
| CC(=NNC(=N)N)c1nnn(-c2ccc(C#CC3(O)CCCCC3)cc2)c1C | Clostridioides difficile |  | Caco-2, ATCC BAA-1870 |  | reference: Caco-2 IC50 over MIC | selectivity index | 5.5 |
| N#Cc1ccc(-c2ccc(-c3ccco3)o2)cc1 | Salmonella typhimurium | mutagenicity, Ames test | TA1535 | 10 or 20 µM, 48 h, pH 7.4, higher tested concentration, added: rat liver S9 mix |  | revertant colonies | 23.7 ± 2.5 colonies/plate |
| COc1ccc(CNc2nc(N3CCC[C@H]3CO)ncc2C(=O)NN)cc1Cl | Salmonella typhimurium |  | TA1535 | 62.5 µg/plate, 48 h, added: rat liver S9 |  | revertant count | 57 ± 2 |

A few entries again:
| SMILES | organism | assay | test system | setting | how to read | measurement | result |
| --- | --- | --- | --- | --- | --- | --- | --- |
| CCC(=O)N(C)c1ccc(Cl)c(Cl)c1 | Salmonella typhimurium | Ames test | TA100 | 1.00 mg/plate, with rat liver S9 |  | revertant colonies | 53 ± 4.6 revertants/plate |
